Assay results of several laboratories.
± gives the spread as reported.
Target: Neutrophil elastase (ELANE, Homo sapiens, UniProt P08246)
Action: inhibitor
Residues used in one study (P08246 30-267): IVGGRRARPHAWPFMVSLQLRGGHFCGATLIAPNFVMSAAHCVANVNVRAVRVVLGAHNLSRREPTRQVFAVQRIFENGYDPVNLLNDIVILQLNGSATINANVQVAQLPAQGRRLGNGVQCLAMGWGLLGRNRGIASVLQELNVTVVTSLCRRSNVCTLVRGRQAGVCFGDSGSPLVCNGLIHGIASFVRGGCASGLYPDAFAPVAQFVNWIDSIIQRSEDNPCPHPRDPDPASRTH

SMILES | test | system | conditions | scale | quantity | value
Cc1ccc(S(=O)(=O)N/N=C/c2ccsc2B(O)O)cc1 | enzyme activity | – | – | – | kon | 216 M⁻¹ s⁻¹
Cc1cc(C)cc(NC(=O)Nc2cccc(S(=O)(=O)O)c2)c1 | enzyme activity, fluorescence | – | 100 µM | – | inhibition | 41.3%
Cc1nc2ccccc2n1S(=O)(=O)c1ccc2c(c1)C(=O)CC2=O | enzyme activity, fluorescence | – | 50 µM | – | inhibition | 31.9%
Cc1ccc(S(=O)(=O)N2N=Cc3ccsc3B2O)cc1 | enzyme activity, fluorimetric | – | – | – | ligand efficiency | 0.39
O=C(Nc1cc(C(=O)Nc2ccc(S(=O)(=O)O)cc2)cc(C(=O)Nc2ccc(S(=O)(=O)O)cc2)c1)Nc1cc(C(=O)Nc2ccc(S(=O)(=O)O)cc2)cc(C(=O)Nc2ccc(S(=O)(=O)O)cc2)c1 | enzyme activity, chromogenic substrate hydrolysis | – | pH 7.4, 37 °C, 100 mM NaCl, together with: substrate S-1384 | – | Hill slope | 2.3 ± 0.3
O=C(N[C@@H](CC1CCCCC1)C(=O)N[C@@H](C[C@H]1CCNC1=O)C(=O)C(=O)NC1CC1)OCc1cccc(Cl)c1 | – | – | 17.5 µM | – | inhibition | 32%
OB1c2sccc2C=NN1Cc1ccccc1 | enzyme activity | – | – | – | kon | 12.8 M⁻¹ s⁻¹
COc1cc(-c2ccc(/N=N/c3ccc4c(S(=O)(=O)O)cc(S(=O)(=O)O)c(N)c4c3O)c(OC)c2)ccc1/N=N/c1ccc2c(S(=O)(=O)O)cc(S(=O)(=O)O)c(N)c2c1O | enzyme activity, chromogenic substrate hydrolysis | – | pH 7.4, 37 °C, 100 mM NaCl, together with: substrate S-1384 | – | maximal inhibition | 108 ± 5.3%
CCC1(CC)C(=O)N(c2cccc(CN3CCN(c4cc(C)nc5ccc(Br)cc45)CC3)c2)C1=O | competitive ABPP | U-937 cell lysate | 10 µM, together with: FP-biotin 10 µM | reference: DMSO over compound | SILAC ratio | > 3
Cc1cc(-c2ccc(/N=N/c3ccc4c(S(=O)(=O)O)cc(S(=O)(=O)O)c(N)c4c3O)c(C)c2)ccc1/N=N/c1ccc2c(S(=O)(=O)O)cc(S(=O)(=O)O)c(N)c2c1O | enzyme activity, chromogenic substrate hydrolysis | – | pH 7.4, 37 °C, 100 mM NaCl, together with: substrate S-1384 | – | maximal inhibition | 97 ± 3.2%
O=C1CC(=O)c2cc(S(=O)(=O)n3cnc4ccccc43)ccc21 | enzyme activity, fluorescence | – | 10 µM | – | inhibition | 44.9%

Some of these lines once more:
SMILES | test | system | conditions | scale | quantity | value
Cc1cc(-c2ccc(/N=N/c3ccc4c(S(=O)(=O)O)cc(S(=O)(=O)O)c(N)c4c3O)c(C)c2)ccc1/N=N/c1ccc2c(S(=O)(=O)O)cc(S(=O)(=O)O)c(N)c2c1O | enzyme activity, chromogenic substrate hydrolysis | – | pH 7.4, 37 °C, 100 mM NaCl, together with: substrate S-1384 | – | maximal inhibition | 97 ± 3.2%
